Results of several laboratories.
Numbered parts are unrelated; each lists some results of a single study.
UniProt Q14012, sequence (whole entry, looked up): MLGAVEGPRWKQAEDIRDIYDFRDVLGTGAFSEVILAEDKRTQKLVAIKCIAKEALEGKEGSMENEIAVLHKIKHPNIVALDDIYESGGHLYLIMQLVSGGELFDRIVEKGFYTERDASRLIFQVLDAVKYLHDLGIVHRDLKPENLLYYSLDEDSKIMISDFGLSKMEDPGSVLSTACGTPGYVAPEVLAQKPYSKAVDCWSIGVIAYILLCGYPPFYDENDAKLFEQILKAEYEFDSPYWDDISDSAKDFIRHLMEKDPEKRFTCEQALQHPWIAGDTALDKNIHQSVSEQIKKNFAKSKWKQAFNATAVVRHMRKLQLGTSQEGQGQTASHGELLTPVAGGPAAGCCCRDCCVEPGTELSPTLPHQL
UniProt Q92772, sequence (whole entry, looked up): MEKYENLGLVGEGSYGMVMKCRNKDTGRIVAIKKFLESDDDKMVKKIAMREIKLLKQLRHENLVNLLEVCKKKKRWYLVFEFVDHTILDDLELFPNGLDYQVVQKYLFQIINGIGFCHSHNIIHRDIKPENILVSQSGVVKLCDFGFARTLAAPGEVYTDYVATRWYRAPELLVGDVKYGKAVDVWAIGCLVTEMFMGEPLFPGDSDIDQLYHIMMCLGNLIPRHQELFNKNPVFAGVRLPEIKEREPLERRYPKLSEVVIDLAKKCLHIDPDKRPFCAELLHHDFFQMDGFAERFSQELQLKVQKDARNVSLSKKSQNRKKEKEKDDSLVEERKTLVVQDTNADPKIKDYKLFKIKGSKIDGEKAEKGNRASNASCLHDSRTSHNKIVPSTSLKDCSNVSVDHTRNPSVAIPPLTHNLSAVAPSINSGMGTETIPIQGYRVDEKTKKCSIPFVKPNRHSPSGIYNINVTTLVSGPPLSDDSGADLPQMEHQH
UniProt Q9UQ88, sequence (whole entry, looked up): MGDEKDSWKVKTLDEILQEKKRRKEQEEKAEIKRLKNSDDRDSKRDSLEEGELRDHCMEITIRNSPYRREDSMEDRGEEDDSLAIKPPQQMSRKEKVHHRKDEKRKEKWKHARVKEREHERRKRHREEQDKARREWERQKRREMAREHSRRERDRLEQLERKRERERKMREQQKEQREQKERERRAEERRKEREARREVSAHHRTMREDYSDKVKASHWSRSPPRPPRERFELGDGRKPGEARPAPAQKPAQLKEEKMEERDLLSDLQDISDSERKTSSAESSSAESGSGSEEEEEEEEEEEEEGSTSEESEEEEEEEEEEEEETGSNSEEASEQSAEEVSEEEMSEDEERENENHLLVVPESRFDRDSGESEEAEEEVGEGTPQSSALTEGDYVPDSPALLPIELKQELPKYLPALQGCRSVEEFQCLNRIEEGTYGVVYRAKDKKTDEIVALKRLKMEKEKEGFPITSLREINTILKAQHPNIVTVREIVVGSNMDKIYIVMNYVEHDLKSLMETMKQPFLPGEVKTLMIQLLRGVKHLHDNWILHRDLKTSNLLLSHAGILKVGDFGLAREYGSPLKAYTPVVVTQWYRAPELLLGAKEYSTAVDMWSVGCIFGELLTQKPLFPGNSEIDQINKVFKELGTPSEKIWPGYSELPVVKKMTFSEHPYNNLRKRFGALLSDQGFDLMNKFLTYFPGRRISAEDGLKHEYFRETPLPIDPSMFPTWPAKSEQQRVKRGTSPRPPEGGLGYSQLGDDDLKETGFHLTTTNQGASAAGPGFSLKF
UniProt P29376, sequence (whole entry, looked up): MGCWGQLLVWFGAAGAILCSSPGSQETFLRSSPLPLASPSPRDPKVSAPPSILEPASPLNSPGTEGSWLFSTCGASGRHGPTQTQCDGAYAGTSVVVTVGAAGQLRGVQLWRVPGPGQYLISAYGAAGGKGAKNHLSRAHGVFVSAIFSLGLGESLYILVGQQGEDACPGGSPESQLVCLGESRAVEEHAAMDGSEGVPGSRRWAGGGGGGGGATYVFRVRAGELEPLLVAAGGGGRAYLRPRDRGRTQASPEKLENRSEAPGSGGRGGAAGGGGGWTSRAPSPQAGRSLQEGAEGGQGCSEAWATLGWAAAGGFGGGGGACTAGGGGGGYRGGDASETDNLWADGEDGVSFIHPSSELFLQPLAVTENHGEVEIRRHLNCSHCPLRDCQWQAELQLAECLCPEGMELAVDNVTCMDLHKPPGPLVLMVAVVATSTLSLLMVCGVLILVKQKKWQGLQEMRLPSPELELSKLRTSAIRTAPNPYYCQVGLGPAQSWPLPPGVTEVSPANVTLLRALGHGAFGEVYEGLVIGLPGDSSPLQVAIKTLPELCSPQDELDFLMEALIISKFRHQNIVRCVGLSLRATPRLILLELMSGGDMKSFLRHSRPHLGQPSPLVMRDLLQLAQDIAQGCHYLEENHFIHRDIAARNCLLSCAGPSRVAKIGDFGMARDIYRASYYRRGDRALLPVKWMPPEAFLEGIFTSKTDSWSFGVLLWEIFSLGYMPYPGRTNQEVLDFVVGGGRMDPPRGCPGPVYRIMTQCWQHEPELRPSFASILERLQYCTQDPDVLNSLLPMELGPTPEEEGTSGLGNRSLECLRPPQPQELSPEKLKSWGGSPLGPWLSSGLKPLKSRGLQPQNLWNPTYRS
UniProt O00506, sequence (whole entry, looked up): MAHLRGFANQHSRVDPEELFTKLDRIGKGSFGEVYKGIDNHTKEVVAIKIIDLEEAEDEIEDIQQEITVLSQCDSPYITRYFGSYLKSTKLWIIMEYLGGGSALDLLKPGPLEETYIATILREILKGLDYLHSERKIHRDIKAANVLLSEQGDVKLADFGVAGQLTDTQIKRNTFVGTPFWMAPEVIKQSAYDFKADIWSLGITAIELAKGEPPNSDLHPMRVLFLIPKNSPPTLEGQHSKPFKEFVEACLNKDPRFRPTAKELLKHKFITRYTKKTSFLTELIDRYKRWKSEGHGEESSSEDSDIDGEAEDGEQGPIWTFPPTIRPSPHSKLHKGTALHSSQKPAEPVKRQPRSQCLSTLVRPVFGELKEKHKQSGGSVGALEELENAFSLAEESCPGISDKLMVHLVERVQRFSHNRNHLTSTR

Block 1
Target: Serine/threonine-protein kinase TAO2 (TAOK2, Homo sapiens, UniProt Q9UL54)
Read-out: enzyme activity
Action: inhibitor
Concentration: 0.5 µM
Reference: control
Residues (Q9UL54 1-1235): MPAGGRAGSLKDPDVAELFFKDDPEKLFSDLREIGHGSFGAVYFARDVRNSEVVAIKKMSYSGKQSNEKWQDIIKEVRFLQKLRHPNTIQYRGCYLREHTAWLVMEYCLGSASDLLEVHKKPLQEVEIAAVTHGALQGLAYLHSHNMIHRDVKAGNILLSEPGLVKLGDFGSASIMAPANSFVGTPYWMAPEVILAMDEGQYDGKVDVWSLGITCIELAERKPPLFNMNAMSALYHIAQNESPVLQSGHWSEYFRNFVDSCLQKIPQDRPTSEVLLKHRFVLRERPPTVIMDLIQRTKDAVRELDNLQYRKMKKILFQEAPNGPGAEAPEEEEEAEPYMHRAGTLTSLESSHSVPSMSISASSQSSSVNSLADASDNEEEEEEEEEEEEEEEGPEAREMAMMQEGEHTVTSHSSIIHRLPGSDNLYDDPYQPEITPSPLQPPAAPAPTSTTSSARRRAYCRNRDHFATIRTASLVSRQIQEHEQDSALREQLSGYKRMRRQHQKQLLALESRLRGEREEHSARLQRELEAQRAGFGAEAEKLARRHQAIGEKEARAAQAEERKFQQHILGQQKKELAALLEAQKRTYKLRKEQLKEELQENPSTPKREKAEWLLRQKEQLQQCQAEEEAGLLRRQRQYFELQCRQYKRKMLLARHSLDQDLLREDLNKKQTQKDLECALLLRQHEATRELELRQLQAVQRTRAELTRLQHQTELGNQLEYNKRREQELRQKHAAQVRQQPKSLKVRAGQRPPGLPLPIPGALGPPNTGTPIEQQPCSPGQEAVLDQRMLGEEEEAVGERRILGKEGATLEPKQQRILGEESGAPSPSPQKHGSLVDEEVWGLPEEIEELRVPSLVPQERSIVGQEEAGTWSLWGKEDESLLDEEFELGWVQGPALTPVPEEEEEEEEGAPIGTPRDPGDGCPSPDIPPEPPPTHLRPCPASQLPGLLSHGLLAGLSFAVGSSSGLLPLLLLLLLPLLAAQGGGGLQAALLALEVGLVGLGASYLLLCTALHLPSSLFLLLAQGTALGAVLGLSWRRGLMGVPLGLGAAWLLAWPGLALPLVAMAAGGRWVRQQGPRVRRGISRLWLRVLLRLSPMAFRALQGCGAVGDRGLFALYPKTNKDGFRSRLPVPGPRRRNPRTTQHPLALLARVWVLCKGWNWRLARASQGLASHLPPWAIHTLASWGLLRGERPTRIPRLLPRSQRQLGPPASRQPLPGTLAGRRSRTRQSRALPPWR
The remaining activity of `CCOc1nc(NC(=O)Cc2cc(OC)ccc2OC)cc(N)c1C#N` is reported as 99.4%.
For `O=C(NC(NC(=S)Nc1ccc(F)c([N+](=O)[O-])c1)C(Cl)(Cl)Cl)C(c1ccccc1)c1ccccc1` (stereo not shown), the remaining activity was 103%.
With `Cc1cc2ncc(-c3ccccc3)nc2cc1C` the remaining activity was 105%.
For `CN([C@@H](Cc1ccc(OS(=O)(=O)c2cccc3cnccc23)cc1)C(=O)N1CCN(c2ccccc2)CC1)S(=O)(=O)c1cccc2cnccc12`, the remaining activity was 98.3%.
For `O=C1C(Cl)=C(N2C(=O)CCC2=O)C(=O)c2ccccc21`, the remaining activity was 99.2%.
`N#C/C(=C\c1ccc(O)c(O)c1)C(=O)NCc1ccccc1` has a remaining activity of 95.7%.
`Cn1nc2c3c(cccc31)C(=O)c1ccccc1-2` has a remaining activity of 104%.
With `O=C1Nc2ccc(Cl)cc2C1=Cc1cc(Cl)c(O)c(Cl)c1` the remaining activity was 81.3%.

Block 2
Organism: Sarcocystis neurona
Read-out: parasite growth
Concentration: 10 µM
Time: 96 h
Setting: secondary screen
The inhibition of `CC(C)(C#N)c1cc(Cn2cncn2)cc(C(C)(C)C#N)c1` is reported as -45.4%.
For `CN(C)[C@@H]1C(O)=C(C(N)=O)C(=O)[C@@]2(O)C(O)=C3C(=O)c4c(O)cccc4[C@@](C)(O)[C@H]3C[C@@H]12`, the inhibition was -30.7%.
The inhibition of `O=C(NCCO[N+](=O)[O-])c1cccnc1` is reported as -41.2%.
`COc1ccc2c(c1)c(CC(=O)O)c(C)n2C(=O)c1ccc(Cl)cc1` gave an inhibition of 5.3%.
`COc1cc(C)nc(-n2nc(C)cc2OC)n1` has an inhibition of -6.5%.

Block 3
Compound: O=C(N[C@H]1CCCCC/C=C\C2C[C@@]2(C(=O)O)NC(=O)[C@@H]2C[C@@H](Oc3ccncc3)CN2C1=O)OC1CCCC1 (stereo partly shown)
Method: competition with immobilised ligand
Concentration: 1 µM
For Cyclin-dependent kinase 11A (CDK11A, Homo sapiens, UniProt Q9UQ88); binding: remaining binding read 88%.
It gave 99% for remaining binding (Leukocyte tyrosine kinase receptor (LTK, Homo sapiens, UniProt P29376); cell-free assay).
For Cyclin-dependent kinase-like 2 (CDKL2, Homo sapiens, UniProt Q92772); binding: remaining binding read 100%.
For Serine/threonine-protein kinase 25 (STK25, Homo sapiens, UniProt O00506); binding: remaining binding read 97%.
Calcium/calmodulin-dependent protein kinase type 1 (CAMK1, Homo sapiens, UniProt Q14012); cell-free assay — remaining binding: 87%.

Single results of other studies
`CC(C)S(=O)(=O)c1cc2c(Nc3ccc4sc(C5CCCC5)nc4c3)ccnc2cc1OCCO` has a CC50 of 45.7 µM (L929 RIPK3 knockout; cell viability; without zVAD, 10% FBS, mean of 3).

Some of these lines once more (block 1):
For `O=C(NC(NC(=S)Nc1ccc(F)c([N+](=O)[O-])c1)C(Cl)(Cl)Cl)C(c1ccccc1)c1ccccc1` (stereo not shown), the remaining activity was 103%.
With `Cc1cc2ncc(-c3ccccc3)nc2cc1C` the remaining activity was 105%.
